Measured values pooled from the literature.
± gives the spread as reported.

SMILES	target or system	assay	system	conditions	how to read	quantity	result
CCN(CC)CC(=O)Nc1cccc(-n2cc(-c3ccc4ccc(-c5cn(-c6cccc(NC(=O)CN(CC)CC)c6)nn5)cc4c3)nn2)c1	RCC4	PCR angiogenesis array, item: BAI1	–	5 x IC50, 4 h, normoxia	baseline: untreated	fold regulation	-1.92
Cc1ncsc1-c1ccc(C(C)NC(=O)C2CC(O)CN2C(=O)C(NC(=O)CCCCCCCCCCN2CCCC(Nc3ncc(Cl)c(Nc4ccccc4S(=O)(=O)C(C)C)n3)C2)C(C)(C)C)cc1 (stereo not shown)	22Rv1	RNA-seq, item: STPG1 mRNA	–	concentration not given	baseline: DMSO	log2 fold change	-2
COC1CN([C@H]2CC[C@H]([C@@]3(C)Oc4c(Cl)cc(C(=O)NCc5c(SC)cc(C)[nH]c5=O)c(C)c4O3)CC2)C1	–	RNA-seq, item: IGSF3	human, whole blood	dose not given, 24 h	baseline: pretreatment baseline	log2 fold change	4.9
C[n+]1cccc2cc(/C=N/NC(=O)N/N=C/c3ccc4c(ccc[n+]4C)c3)ccc21	myc22 MYC G4-DNA parallel	FRET melting	–	1 µM, K1 buffer, DNA 0.2 µM	–	ΔTm	5.8 ± 0.3 °C
C=CC(=O)N1[C@@H](c2ccc3c(c2)OCO3)c2[nH]c3ccccc3c2C[C@H]1C(=O)N1CCN(C)CC1	human cyclin E1 N112C-3xFLAG:CDK2	co-IP with TMT proteomics, item: CKS1B	–	concentration not given, P61024	baseline: wild type DMSO	relative co-enrichment	199%
C[n+]1ccc(/C=N/NC(=O)c2cccc(C(=O)N/N=C/c3cc[n+](C)cc3)c2)cc1	myc22 MYC G4-DNA parallel	FRET melting	–	1 µM, K1 buffer, DNA 0.2 µM	–	ΔTm	2.8 ± 0.3 °C
CCCCNCCO.O=C(O)C(Cl)Cl	Eleusine indica	–	–	15 mg/mL, 21 days, pre-emergence, greenhouse	–	herbicidal inhibition	0%
C[n+]1ccc(/C=N/NC(=O)c2cncc(C(=O)N/N=C/c3cc[n+](C)c4ccccc34)n2)c2ccccc21	myc22 MYC G4-DNA parallel	FRET melting	–	1 µM, K1 buffer, DNA 0.2 µM	–	ΔTm	21 ± 0.2 °C
CNS(=O)(=O)Nc1nccc(Cc2c(C)c3ccc(Oc4ncccc4F)cc3oc2=O)c1F	ZR-75-30	cell viability	–	7 days	–	IC50	> 1000 nM
O=C(N/N=C/c1cc[n+](Cc2ccccc2)c2ccccc12)c1ccc2ccc3ccc(C(=O)N/N=C/c4cc[n+](Cc5ccccc5)c5ccccc45)nc3c2n1	myc22 MYC G4-DNA parallel	FRET melting	–	1 µM, K1 buffer, DNA 0.2 µM	–	ΔTm	21.8 ± 0.9 °C
C=CC(=O)Nc1cccc(Cn2ncc3cnc(Nc4cnn(CCOC)c4)nc32)c1	RET human	binding, KINOMEscan	–	100 nM	lower = stronger binding	percent of control	67%
O=C(N/N=C/c1ccc2c(ccc[n+]2Cc2ccccc2)c1)c1ccc2ccc3ccc(C(=O)N/N=C/c4ccc5c(ccc[n+]5Cc5ccccc5)c4)nc3c2n1	myc22 MYC G4-DNA parallel	FRET melting	–	1 µM, K1 buffer, DNA 0.2 µM	–	ΔTm	24.4 ± 0.2 °C
Nc1ncc(-c2cc(-c3cnn(CC(F)(F)F)c3)ncc2F)nc1C(=O)NC1CNCC(F)C1 (stereo not shown)	FGFR4	KINOMEscan	–	1 µM	baseline: DMSO control	remaining binding	80%
CN1CCC[C@]1(C)/C=C/S(=O)(=O)NC(=O)Nc1c2c(cc3c1CCC3)CCC2	–	–	human, whole blood ex vivo	100 mg twice daily, day 14, 6 h, multiple ascending dose, with: LPS and ATP	–	IL-18 inhibition	93.9%
C[n+]1cc(/C=N/NC(=O)c2ccc3ccc4ccc(C(=O)N/N=C/c5cc6ccccc6[n+](C)c5)nc4c3n2)cc2ccccc21	myc22 MYC G4-DNA parallel	FRET melting	–	1 µM, K1 buffer, DNA 0.2 µM	–	ΔTm	18.5 ± 7.4 °C
Cc1cccc2c1N(C(=O)n1ccnn1)CC2	Arabidopsis thaliana	–	wild type	30 µM, seedlings	–	hypocotyl length	9.76 mm
CC(=O)[O-].O.O.O.O.[Ni+2].[O-]c1ccc(Br)cc1C=NCCN1CCOCC1	–	nitric oxide scavenging	–	160 µM	–	inhibition	35.8%
C=C(NC(=O)c1csc(-c2nc3c(cc2O)-c2nc(cs2)C(=O)NC(C(C)O)C(=O)NC(=C(C)OC)c2nc(cs2)C(=O)NC2c4nc(cs4)C(=O)NC(COC(=O)c4c5c6c(cccc6n4O)COC(=O)C(OC4CC(C)(O)C(N(C)C)C(C)O4)C2OC5)c2nc-3cs2)n1)C(N)=O (stereo not shown)	Streptococcus pneumoniae	–	ATCC 49619, immunocompromised mice, lung infection	bid dosing	–	lung bacterial load at ED50	5.33 log CFU/g
COc1ccc(C(=O)CCc2cc(C(CCc3ccc(O)cc3OC)c3ccc(O)cc3)c(O)cc2OC)cc1 (racemic)	–	–	human blood	30 µM, with: A23187	–	20-OH-LTB4 level	455 ± 191 pg/mL
CN1CCCNC(=O)c2cccc(c2)C(=O)NCCCN(C)CCCNc2cccc3c2C(=O)c2cccc(c2C3=O)NCCC1	SAS	RNA-Seq, item: BRCA2 mRNA	–	1 µM, 6 h	baseline: untreated cells	log2 fold change	1.05
O=C(N/N=C/c1ccc(C[n+]2ccccc2)cc1)c1cccc(C(=O)N/N=C/c2ccc(C[n+]3ccccc3)cc2)n1	myc22 MYC G4-DNA parallel	FRET melting	–	1 µM, K1 buffer, DNA 0.2 µM, with: ds26 10 µM	–	ΔTm	8.4 ± 0.6 °C
COc1cc(O)ccc1CCC(c1ccc(O)cc1)c1cc2c(c(C)c1O)OC(c1ccc(O)cc1)CC2 (mixture of isomers)	–	item: 12-HEPE	human whole blood	0.3 µM, with: Escherichia coli	–	amount	2800 ± 1400 pg/mL blood
